Assay results gathered from unrelated publications.
Every numbered part comes from another study and shows a few of its results, in no order.

Study 1
Molecule: PhoQ, residues 284 288 289 292 302 303 NLCILV
Method: Sort-seq
Measured: YFP reporter
Medium: E. coli
Setting: PhoQ-PhoP variant library
Together with: 10 µM Mg2+
Relative to: high Mg2+ state
Direction: higher = stronger signaling
target | fold induction
PhoP, residues 12 14 15 18 19 TQAML (Escherichia coli, UniProt P23836) | 27.8
PhoP, residues 12 14 15 18 19 NQCAL (Escherichia coli, UniProt P23836) | 21.3
PhoP, residues 12 14 15 18 19 LHTVL (Escherichia coli, UniProt P23836) | 0.129

Study 2
Target: Interferon regulatory factor 5, full length, phosphomimetic (IRF5, Homo sapiens, UniProt Q13568-2, residues 1-514, K96S/S451D/S453D/S456D/S462D)
Method: protein-binding microarray
Molecule type: double-stranded DNA, one strand shown
Medium: in vitro
Tested at: 250 nM
Setting: 60-bp whole probe
Together with: salmon DNA 0.4 mg/ml
Relative to: random background probes
Direction: higher = stronger binding
Sequence | log fluorescence [z-score]
GCCTAGCACTCACATTTGGTTAGCGTACTGTGCTAGGTCTTGATTCGCTTGACGCTGCTG | 0.341
GCCTAGCACGACGGTATCGACGCTGGGGACGTGCTAGTCTTGATTCGCTTGACGCTGCTG | 1.2
GCCTAGCACATTGAGAATTCCACTCCGCTGTGCTAGGTCTTGATTCGCTTGACGCTGCTG | -0.144

Study 3
Target: Centromere-binding protein 1, full length, N-terminal tag (CBF1, Saccharomyces cerevisiae, UniProt P17106, residues 1-351)
Chain of UniProt P17106 (whole entry, looked up): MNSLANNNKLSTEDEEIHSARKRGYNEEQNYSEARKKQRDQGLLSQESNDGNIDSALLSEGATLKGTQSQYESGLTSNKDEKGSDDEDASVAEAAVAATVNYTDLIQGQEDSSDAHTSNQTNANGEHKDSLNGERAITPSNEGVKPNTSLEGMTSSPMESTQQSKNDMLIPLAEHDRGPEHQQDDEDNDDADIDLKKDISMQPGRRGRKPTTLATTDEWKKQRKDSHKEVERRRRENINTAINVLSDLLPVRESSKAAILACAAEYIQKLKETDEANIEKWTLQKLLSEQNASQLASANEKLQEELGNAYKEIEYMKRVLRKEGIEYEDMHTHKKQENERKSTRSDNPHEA
Method: protein-binding microarray
Molecule type: double-stranded DNA, one strand shown
Medium: in vitro
Tested at: 0.8 µM
Setting: whole 60-bp probe, no competitor
Direction: higher = stronger binding
Sequence | fluorescence intensity
CTATTCCCGGTTATGCACGAGGTCAATGAGACCTTCGTCTTGATTCGCTTGACGCTGCTG | 800 a.u.
CTACTTCATTTGCATCATCAGTAGCGTTCATCTTTCGTCTTGATTCGCTTGACGCTGCTG | 538 a.u.
GAAGCTAATTAGGTGATCATGAAAAAATGAAAATAGGTCTTGATTCGCTTGACGCTGCTG | 613 a.u.

Study 4
Target: Ras GTPase-activating protein-binding protein 1, full length (G3BP1, Homo sapiens, UniProt Q13283)
Chain of UniProt Q13283 (whole entry, looked up): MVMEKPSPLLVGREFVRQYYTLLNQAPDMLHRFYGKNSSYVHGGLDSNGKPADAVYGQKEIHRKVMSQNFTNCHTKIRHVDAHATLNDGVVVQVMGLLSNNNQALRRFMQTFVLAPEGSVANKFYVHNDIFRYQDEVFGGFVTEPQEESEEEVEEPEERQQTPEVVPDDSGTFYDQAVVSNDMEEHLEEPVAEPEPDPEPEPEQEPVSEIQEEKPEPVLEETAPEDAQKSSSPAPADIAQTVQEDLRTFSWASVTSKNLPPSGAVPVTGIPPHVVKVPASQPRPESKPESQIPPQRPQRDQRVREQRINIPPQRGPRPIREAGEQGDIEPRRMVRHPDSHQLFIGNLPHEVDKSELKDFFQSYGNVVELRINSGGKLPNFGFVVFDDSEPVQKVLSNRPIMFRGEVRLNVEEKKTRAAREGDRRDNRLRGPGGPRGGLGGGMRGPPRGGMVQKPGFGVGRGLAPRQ
Method: RNA Bind-n-Seq
Molecule type: RNA
Medium: in vitro
Tested at: 200 nM
Setting: whole 134-nt RNA, ends assumed
Together with: 150 mM LiCl
Relative to: input library
Direction: higher = stronger binding
All molecules: 7-deaza-guanosine replaces G
Sequence | log2 enrichment
GGGAGUUCUACAGUCCGACGAUCUCAAGUCCUGUGCUACACAUCGUAUGUACCGAAUCGGGAGGGAAAAAGGGUGGGAAAGUAUUAUGUUACGCCGUUCGGAUCUGCACUUCCUGGAAUUCUCGGGUGUCAAGG | -0.72
GGGAGUUCUACAGUCCGACGAUCGUCCUGUGCUACACAUCGUAUGUACCGAAUCGGGGUUUUUGGGGAAAGGGGAAAGGGGAAAGUAUUAUGUUACGCCGUUCGGAUCUGCACUGGAAUUCUCGGGUGUCAAGG | 0.311
GGGAGUUCUACAGUCCGACGAUCUGGGAGGUGGAUUUUGUUUAUUUUUUUAGCUCAUUUCCAGGGGUGGGAAUUUUUUUUUAAUAUGUGUCAUGAAUAGAGUUGUUUUUGAAAUGGAAUUCUCGGGUGUCAAGG | 0.129

Repeated from above (study 1):
target | fold induction
PhoP, residues 12 14 15 18 19 LHTVL (Escherichia coli, UniProt P23836) | 0.129
